Measured values of several laboratories.
Numbered parts are unrelated; each lists some results of a single study.

Series 1
Target: Interferon regulatory factor 7, full length, phosphomimetic (IRF7, Homo sapiens, UniProt Q92985, residues 1-503, S101K/S471D/S472D/S475D/S476D/S477D/S483D/S484D/S487D)
Method: protein-binding microarray
Form: double-stranded DNA, one strand shown
Medium: in vitro
Tested at: 250 nM
Notes: 60-bp whole probe
Added: salmon DNA 0.4 mg/ml
Reference: random background probes
Direction: higher = stronger binding
Constant ends, left off below: GCCTAGCAC … GTCTTGATTCGCTTGACGCTGCTG
Target sequence (chain): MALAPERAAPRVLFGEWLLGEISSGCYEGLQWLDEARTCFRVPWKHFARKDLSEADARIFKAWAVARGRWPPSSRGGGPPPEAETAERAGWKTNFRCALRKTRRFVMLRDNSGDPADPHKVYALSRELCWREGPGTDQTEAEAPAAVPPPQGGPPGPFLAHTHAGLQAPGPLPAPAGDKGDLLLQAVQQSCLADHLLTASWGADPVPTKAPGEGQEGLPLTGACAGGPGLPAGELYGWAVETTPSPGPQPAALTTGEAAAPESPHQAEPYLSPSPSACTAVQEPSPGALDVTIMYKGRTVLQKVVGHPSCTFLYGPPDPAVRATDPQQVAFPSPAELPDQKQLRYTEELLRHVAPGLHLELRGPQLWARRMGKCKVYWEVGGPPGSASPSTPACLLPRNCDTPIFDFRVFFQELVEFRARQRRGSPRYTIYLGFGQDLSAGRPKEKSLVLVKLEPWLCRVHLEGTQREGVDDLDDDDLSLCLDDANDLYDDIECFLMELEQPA
| Oligonucleotide | log fluorescence |
| --- | --- |
| GACGGTTTCCTTTTCCCGACGTGCTAG | 7.51 z-score |
| GACGAACTGTGGTTTCGAGACGTGCTA | 3.7 z-score |
| TTAGATCTCAGTTTCGCTTAGTGCTAG | 5.88 z-score |
| TTATGTCTCCTACTGCTTTAGTGCTAG | 0.349 z-score |
| TTAGATAACAGTCTCGATTAGTGCTAG | 1.53 z-score |
| GATGGTATCGGGACTGGGGACGTGCTA | -0.277 z-score |
| TTCTAAATATCTTTGTTGAAGTGCTAG | -0.253 z-score |
| TTAGAACTGAGACTAGATTAGTGCTAG | 0.0431 z-score |
| TCAACTCTTTATTTAAGACTGTGCTAG | 0.277 z-score |
| TTAGGTATCGACTAGCGGTTAGTGCTA | 0.213 z-score |
| TCATTTTACATTATTACACTGTGCTAG | 1.68 z-score |
| TTAGGACTGCTTTTCTTTTAGTGCTAG | 1.29 z-score |
| GACGATCTCAGACTGGAGATGTGCTAG | -0.464 z-score |
| GACGGACTGGGGTTTCGGGACGTGCTA | 1.08 z-score |
| TCCATTTTGTGTTTTCATTTGTGCTAG | 1.91 z-score |
| TCAGTTTTCTAATGTTTTACTGTGCTA | 1.5 z-score |

Series 2
Target: Ras GTPase-activating protein-binding protein 1, RRM domain (G3BP1, Homo sapiens, UniProt Q13283)
Sequence of UniProt Q13283 (whole entry, looked up): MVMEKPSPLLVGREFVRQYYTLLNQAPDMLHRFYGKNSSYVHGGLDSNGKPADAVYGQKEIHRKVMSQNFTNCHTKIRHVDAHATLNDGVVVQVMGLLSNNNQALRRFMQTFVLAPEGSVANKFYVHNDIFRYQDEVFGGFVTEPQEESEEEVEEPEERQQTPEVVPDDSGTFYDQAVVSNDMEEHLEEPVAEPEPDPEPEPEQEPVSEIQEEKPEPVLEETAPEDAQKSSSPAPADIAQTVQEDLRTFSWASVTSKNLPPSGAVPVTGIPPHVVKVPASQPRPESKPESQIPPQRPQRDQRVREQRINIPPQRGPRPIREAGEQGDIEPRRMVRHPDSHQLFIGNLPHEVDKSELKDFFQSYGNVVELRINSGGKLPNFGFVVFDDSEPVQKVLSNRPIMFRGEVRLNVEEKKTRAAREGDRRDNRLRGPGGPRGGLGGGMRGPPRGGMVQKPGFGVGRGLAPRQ
Method: RNA Bind-n-Seq
Form: RNA
Medium: in vitro
Tested at: 1 µM
Notes: whole 134-nt RNA, ends assumed
Added: 150 mM KCl
Reference: input library
Direction: higher = stronger binding
Constant ends, left off below: GGGAGUUCUACAGUCCGACGAUC … UGGAAUUCUCGGGUGUCAAGG
| Oligonucleotide | log2 enrichment |
| --- | --- |
| CUCAAGUCCUGUGCUACACAUCGUAUGUACCGAAUCGGGGUGGGUGGGGUGGGGAAAGUAUUAUGUUACGCCGUUCGGAUCUGCACUUCC | 0.116 |
| UCCUGUGCUACACAUCGUAUGUACCGAAUCGGGGUUUUUGGGGAGGGGUUUUUUUGGGGAAAGUAUUAUGUUACGCCGUUCGGAUCUGCA | 0.776 |
| UCCUGUGCUACACAUCGUAUGUACCGAAUCGGGGAAAAAAAGGGGUUUGGGGAAAGGGGAAAGUAUUAUGUUACGCCGUUCGGAUCUGCA | 1.24 |
| CUCAAGUCCUGUGCUACACAUCGUAUGUACCGAAUCGGGGAGGAGGGGAGGGGAAAGUAUUAUGUUACGCCGUUCGGAUCUGCACUUCCA | 0.223 |
| GUCCUGUGCUACACAUCGUAUGUACCGAAUCGGGAAAAAGGGGAAAAAGGAAAAAGGGAAAGUAUUAUGUUACGCCGUUCGGAUCUGCAC | 0.0745 |
| CAAGUCCUGUGCUACACAUCGUAUGUACCGAAUCGGGAAAAAGGGAGGGAAAGGGAAAGUAUUAUGUUACGCCGUUCGGAUCUGCACUUC | 0.827 |
| UGAAGGCGCGGCCCUUCCCCGACGGCCUGGCCGAGGACAUCGAUAAAGGCGAGGUGUCCGCCCGUCAGGAGCUCAAGCAGCGGGCGCGCU | -0.599 |
| CACGGACAACACGCACCCACACAGACACAGAGGGAAGGGGUUGGGAUGGGGACAGGGUGCACAGCAGGGCGGGGUAGGACCCCAGCCCCU | -0.0565 |
| AGUCCUGUGCUACACAUCGUAUGUACCGAAUCGGGUUUUUGGGUUUUUUUGGGAGGGAAAGUAUUAUGUUACGCCGUUCGGAUCUGCACU | 0.306 |
| UUCCUCAAGUCCUGUGCUACACAUCGUAUGUACCGAAUCGGCGGCGGGCGGAAAGUAUUAUGUUACGCCGUUCGGAUCUGCACUUCCAGC | -0.247 |
| UUAAAACAUGGCAACUUGUAAUUGUUUUCUUUCUUAGGAACAUCAUUCAUGGCAGUGAUUCAGUAAAAAGUGCUGAAAAAGAAAUCAGCC | -0.0864 |
| CACAGACAACACGCACCCACACAGACACAGAGGGAAGGGGUUGGGAUGGGGACAGGGUGCACCGCAGGGCGGGGUAGGACCCCAGCCCCU | -0.0502 |
| CUGUGCUACACAUCGUAUGUACCGAAUCGGGGCCCCCCCGGGCCCCCCCGGCCCCCCCGGGAAAGUAUUAUGUUACGCCGUUCGGAUCUG | -0.66 |
| ACCAUGCAGGUGGGCAUCUUUGGGAAGUGGGGCAAGGGGGGGAUAGGAAAGGGGGUAACACUUUGGGAACAGGUGGUCCCAGGUCGUUUC | -0.367 |

Series 3
Target: RNA binding protein fox-1 homolog 2, RRM domain, GST-SBP tag (RBFOX2, Homo sapiens, UniProt O43251-10, residues 100-194)
Method: RNA Bind-n-Seq
Form: RNA
Medium: in vitro
Tested at: 365 nM
Notes: natural RNA segment, single round, ends assumed
Reference: no-protein control
Direction: higher = stronger binding
Constant ends, left off below: GGGAGUUCUACAGUCCGACGAUC … UGGAAUUCUCGGGUGCCAA
Target sequence (chain): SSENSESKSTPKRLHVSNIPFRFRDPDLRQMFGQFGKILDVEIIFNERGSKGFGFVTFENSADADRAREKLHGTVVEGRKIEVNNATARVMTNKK
| Oligonucleotide | RBNS enrichment (R) |
| --- | --- |
| CUUAUGUGUCUACUUGGAGAGAAAAGAAUGUCUUUGAACAAAAUGGCUAACUUUCACAAAACUGUCUUGCCUCUUUUAAACAUUACACUUGAUACGAGAAAUAUGGCUUA | 0.406 |
| AGCUCUUCCUGCCCCGUUCAGCUUCACUCCCACCCUUUCAGCGUCCUGCCCCUUCACCUUGACCCGGGUUCCCCCACUCCCAUUCCCUGGCCUCUGCCAUAAUUUGUUGU | 0.597 |
| UUCAUCAGUUUUGCAUCCUACUGAGAAAUGUUAGUGAUUUUGAUACUUAAAUCCUUAAAAGAUUGCUUCGUUUUUAAAAUAACGCAUGUCCAUUUUAGAAAAUUAGAAAA | 32.8 |
| CUUAUCCACCACGCUAUUAUAGUUUCCGUUGUCCUCCACCAGCAUUUCCCUUACUCUGAAGUUCCGGCAUUCACAUCAUUCAUGUUUUCUUUUGUCUUUUAGCUAAAGGA | 0.568 |
| UAUGAGGUUGCUUGCUGCUGGGAAGCCUGGCAGAGCCAAUUACCACCCUCUGCUGCUUAGUGCUUGGGUACCUCUUGCAAUAACCAGCUCUUAGUUGUUCCCUUUCCCUG | 0.289 |
| AAGAGCCAAAGAUAACCACAGCCACAGCCUGUGGAGACCAGGGUUGGAAGCCAGGUGCAGGGCCAGGCAUCUGCAUUGUGGGAUGUUAAUGGCACUUUUGUCUUGUAGCU | 0.561 |
| UUAUAAACAUUUUUCAUUAUUGGAAAGUGUAACGGGGACCUUCUGCAUACCUGUUUAGAACCAAAACCACCAUGACACAGUUUUUAUAGUGUCUGUAUAUUUGUGAUGCA | 0.629 |
| AGAAGUAUGUGUGCGUGUGUGUGUGCGUAUGCGUGUGAGACAGGGCCGCCGUGGGUGUGCGUGUGUGCGACUCAGAAUGUGGGUGGUGGCGCCCUCAGAGACCCUGGCAU | 3.06 |
| ACCUGUUAUUACCAUUAGCAUUCUGGUUUUGACAUCAGCAUUAGUCACUUUGAAAUGUAACGAAUGGUACUACAACCAAUUCCAAGUUUUAAUUUUUAACACCAUGGCAC | 1.43 |
| UUUUUAUUUGAAGUGCCAAAUUAACUUUAGUCAGAAUGUGAGCAGAUGGCUAAGUUCUCUCCUCCCCAGAAUGGAUUAACAGCUGCGUGGAAAGUGGGGGAGAGAGUGGA | 2.28 |
| GCUUGGAAGCAAUUUUUAAAGGGAGUGGAAAGCUUAGGGAAAUCGUUUGUAUUUGGAGUCUUGCUGUGUCUGGUAUUGGAGGUGUGGACACCUUGAGUCUGGGUGAGUUG | 2.73 |
| GAAAUGCUGUCUCUUGUGCAUUUUACUAAUUUCCCCAUUCUUAGGGUAGCAGGGUGGGGGUGUAUAGGGUCUUUUUGAAGCAGUUUUGGAUAGGUUUGCAAUAUGUGGGA | 25.7 |

Series 4
Target: POU domain, class 5, transcription factor 1, POU domain (Pou5f1, Mus musculus, UniProt P20263, residues 131-289)
Sequence of UniProt P20263 (131-289, looked up): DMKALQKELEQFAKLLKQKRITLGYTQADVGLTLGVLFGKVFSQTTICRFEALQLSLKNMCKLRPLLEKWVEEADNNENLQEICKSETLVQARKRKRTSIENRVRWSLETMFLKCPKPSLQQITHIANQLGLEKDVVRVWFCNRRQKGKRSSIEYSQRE
Method: Spec-seq
Form: double-stranded DNA, one strand shown
Medium: in vitro
Tested at: not given
Notes: whole probe, mean of replicates
Reference: not given
Direction: lower = stronger binding
Constant ends, left off below: GAGTCGTCTCGTCAGCAC … CCGTAGAGCACTCAGGTC
| Oligonucleotide | relative binding energy [ln ratio] |
| --- | --- |
| CACGTAAT | 0.813 |
| ATGCGTTA | 0.164 |
| ATGCATCC | -0.313 |
| ATGCAAAA | -1.29 |
| ATGCTGGG | 0.661 |
| ATGCCCTC | 0.649 |
| ACTATAAT | 0.376 |
| TAAGTAAT | 0.331 |
| GTACTAAT | 0.608 |
| ATACAAAT | -0.017 |
| ATGGCAAT | 0.58 |
| ATGCGATG | 0.364 |
| CGGGTAAT | 0.951 |
| ATGCTAAG | 0.0519 |
| ATGCAGGG | 0.278 |
| ATGCTCTG | 0.931 |
| GCGCTAAT | 0.495 |
| ATGCCAGG | 0.859 |
| ATGTGTAT | 0.258 |
| ATGCGGAA | 0.37 |
| ATTTCCAT | -1.21 |
| ATGCTCGT | 0.732 |
| ATGCTTTT | 0.372 |
| ATGCCTCG | 0.322 |
| ATGCTTAT | -0.109 |

Series 5
Target: Histone acetyltransferase KAT6A, winged helix 1, GST fusion (KAT6A, Homo sapiens, UniProt Q92794, residues 1-85)
Method: protein binding microarray
Form: double-stranded DNA, one strand shown
Medium: in vitro
Tested at: not given
Notes: 8-mer, flanks averaged, mean of 2 arrays, mostly near background
Reference: not given
Direction: higher = stronger binding
Residues (chain): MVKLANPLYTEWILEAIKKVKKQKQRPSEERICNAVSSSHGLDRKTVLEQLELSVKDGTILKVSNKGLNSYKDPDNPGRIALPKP
| Oligonucleotide | E-score |
| --- | --- |
| GATACTAC | 0.00936 |
| ACTCCCGA | 0.0102 |
| TACTTATA | -0.0568 |
| AAAGGCGA | -0.0522 |
| GCGGATCA | 0.127 |
| CCACTCTC | -0.125 |
| CGAGATAA | -0.191 |
| ACACTGGC | 0.0128 |
| AGGGCATC | -0.132 |
| CCGCTAGC | 0.305 |
| CTAACAGA | -0.14 |
| AATCCCCG | 0.224 |
| ACCCTTGA | 0.121 |
| GTAAGGGA | 0.000375 |
| AGACTTGC | -0.106 |
| GCACATAC | 0.0635 |
| CGTTCGTC | 0.151 |
| GTGCTGGA | -0.125 |
| TAGAGCAA | -0.131 |
| GCCGTAAA | 0.393 |
| GGGCCGGA | 0.126 |
| CCAACGAA | -0.167 |
| CTGTTGTA | -0.08 |
| CCACCTCA | -0.246 |
| AGCATAGG | -0.124 |

Repeated from above (series 5):
| Oligonucleotide | E-score |
| --- | --- |
| CGTTCGTC | 0.151 |
| ACCCTTGA | 0.121 |
| GCCGTAAA | 0.393 |
| CTAACAGA | -0.14 |
| GCGGATCA | 0.127 |
| AGCATAGG | -0.124 |
| GCACATAC | 0.0635 |
